Experimental data gathered from unrelated publications.
Compare with care: the assays were run in different laboratories. ± marks the error that the study gave.

Structure (SMILES) = O=C(c1cccnc1-c1ccncc1)N1CCC(O)(Cc2ccccc2)CC1; test system = healthy Japanese adults, plasma; conditions = oral, 200 mg single dose; quantity = elimination rate constant; result = 4.44e-05 s⁻¹
Structure (SMILES) = CN[C@H](CC(C)C)C(=O)N[C@H]1C(=O)N[C@@H](CC(N)=O)C(=O)N[C@H]2C(=O)N[C@H]3C(=O)N[C@H](C(=O)N[C@H](C(=O)O)c4cc(O)cc(O)c4-c4cc3ccc4O)[C@H](O)c3ccc(c(Cl)c3)Oc3cc2cc(c3O[C@@H]2O[C@H](CO)[C@@H](O)[C@H](O)[C@H]2O[C@H]2C[C@](C)(N)[C@H](O)[C@H](C)O2)Oc2ccc(cc2Cl)[C@H]1O; test system = guinea pig, tissue cage fluid; conditions = local, 10 mg/mL, poloxamer 407 hydrogel; quantity = elimination rate constant; result = 3.33e-05 s⁻¹
Structure (SMILES) = Cc1nc2ccc(OCc3ccc(C(F)(F)F)cc3)cc2[nH]1; test system = human liver S9; conditions = 1 µM, pH 7.4; quantity = elimination rate constant; result = 5.17e-05 s⁻¹
Structure (SMILES) = CCOc1c([C@H](C)n2nc(C)c3c(N)ncnc32)cc(Cl)c(F)c1[C@@H]1CNC(=O)C1; test system = rat liver microsomes; conditions = 0.5 µM, pH 7.4; quantity = elimination rate constant; result = 2.02e-05 s⁻¹
Structure (SMILES) = CC(C)(CO)c1cc2cc(NC(=O)C3(c4ccc5c(c4)OC(F)(F)O5)CC3)c(F)cc2n1C[C@@H](O)CO; test system = human, plasma; conditions = standard ETI dose; quantity = elimination half-life; result = 13.1 h
Structure (SMILES) = O=C(N1CCCCC1)C12CC(c3ccccc3)(C1)C2; test system = pooled human liver microsomes; conditions = 2 µM, pH 7.4; quantity = elimination rate constant; result = 0.000167 s⁻¹
Structure (SMILES) = CC(C)(C)c1cc(C(C)(C)C)c(NC(=O)c2c[nH]c3ccccc3c2=O)cc1O; test system = human, plasma; conditions = standard ETI dose; quantity = elimination half-life; result = 5 h
Structure (SMILES) = O=C(O)c1cc(O)c(O)c(O)c1; test system = chicken Ross broiler, male, serum; conditions = intravenous, 0.49 mg/kg; quantity = elimination rate constant; result = 0.000317 ± 0.000256 s⁻¹
Structure (SMILES) = C[C@@H](NC(=O)N1C(=O)[C@H](Cc2ccnc(N)c2)[C@H]1C(=O)O)C1CCCCC1; assay = UPLC-MS/MS; test system = healthy adult Chinese volunteers, plasma; conditions = continuous intravenous infusion, 0.3 mg/kg/h, day 6 of 5-day infusion, mean; quantity = elimination rate constant; result = 0.000151 s⁻¹
Structure (SMILES) = O=C(O)Cc1ccccc1Nc1c(Cl)cccc1Cl; test system = pooled human liver microsomes; conditions = 2 µM, pH 7.4; quantity = elimination rate constant; result = 0.00138 s⁻¹

Excerpt of the above:
Structure (SMILES) = O=C(O)Cc1ccccc1Nc1c(Cl)cccc1Cl; test system = pooled human liver microsomes; conditions = 2 µM, pH 7.4; quantity = elimination rate constant; result = 0.00138 s⁻¹
